Results collected from several papers.
± gives the spread as reported.

| SMILES | assay | system | setting | how to read | measurement | result |
| --- | --- | --- | --- | --- | --- | --- |
| CS(=O)(=O)c1cc(Cl)cc(-c2cc(Cl)c(Cl)cc2Cl)c1Cl | – | whole cow milk | mean of all doses | relative to: total added | distribution into milk fat | > 80% |
| CC(C)c1cnc(-c2cc(Cl)ccc2F)cc1Nc1ccncc1C(=O)NC(CO)CO | – | patients, phase I monotherapy | oral, dose not given, grade 2 | – | patients with decreased appetite | 2.4% |
| CC(NC(=O)OC1OC(C(=O)O)C(O)C(O)C1O)c1cc(Cl)ccc1Cn1c(=S)[nH]c(=O)c2[nH]ccc21 (stereo not drawn) | – | Sprague-Dawley rat, both sexes, plasma | oral, 125 mg/kg/day | relative to: rat over human clinical doses | exposure ratio | ≥ 1.4 |
| CSCOC1C(=O)C2(C)C(OCSC)CC3OCC3(OC(C)=O)C2C(OC(=O)c2ccccc2)C2(O)CC(OC(=O)C(O)C(C=C(C)C)NC(=O)OC(C)(C)C)C(C)=C1C2(C)C (stereo not drawn) | – | female Sprague-Dawley rat, plasma | intravenous, 1 mg/kg | – | AUC(0-inf) | 167 ng·h/mL |
| CN1CC[C@H](c2c(O)cc(O)c3c(=O)cc(/C=C/c4c(Cl)cccc4Cl)oc23)[C@H](O)C1 | USP paddle dissolution | HCl buffer, 0.25% SLS | 30 min, pH 1.2 | – | dissolved drug | 99% |
| CSc1ccc([C@H]2C[C@@]3(C)[C@@H](CC[C@@]3(O)C(F)(F)C(F)(F)F)[C@@H]3CCC4=CC(=O)CCC4=C32)cc1 | – | rat liver microsomes | 100 % absorption assumed | – | maximal oral bioavailability | 34% |
| Cn1c(=O)oc2ccc(-c3ccc(CC(C#N)NC(=O)C4CNCCCO4)c(F)c3)cc21 (stereo not drawn) | measured: mouth ulceration | human volunteers | oral, dose not given | – | treatment-related adverse event incidence | 3.7% |
| CC(=O)N([O-])CCCCCNC(=O)CCC(=O)N([O-])CCCCCNC(=O)CCC(=O)N([O-])CCCCCN.[89Zr+4] | radio-iTLC | aqueous buffer | 3 h, pH 7.0, 37 °C, EDTA challenge, added: 100-fold excess EDTA | – | intact complex | 95.5 ± 0.7% |
| Oc1cccc(-c2cccc(O)n2)n1.[Cl-].[Cl-].[Ru+2].c1cnc2c(c1)ccc1cccnc12.c1cnc2c(c1)ccc1cccnc12 | shake flask | octanol/buffer | – | – | logP of basic form | 1.7 |
| CC(C)[C@H](NC(=O)[C@@H]1CCCN1C(=O)[C@H](CCCNC(=N)N)NC(=O)[C@H](CS)NC(=O)[C@H](Cc1c[nH]c2ccccc12)NC(=O)[C@H](CCCNC(=N)N)NC(=O)[C@@H](Cc1ccccc1)NC(=O)[C@H](Cc1c[nH]cn1)NC(=O)[C@H](CCC(=O)O)NC(=O)[C@H](CS)NC(=O)[C@H](CS)NC(=O)[C@@H]1CC(=O)N[C@@H](CCCNC(=N)N)C(=O)NCC(=O)N[C@@H](CC(=O)O)C(=O)N[C@H](Cc2ccc(O)cc2)C(=O)N1)C(N)=O [technetium-99m labelled] | – | C57 mice B16/F1 melanoma female | iv, 2 h, added: NDP-MSH blockade | relative to: tumour over muscle | tumour-to-tissue ratio | 10.6 |
| N=C(N)NCCC[C@@H]1NC(=O)[C@H](Cc2c[nH]c3ccccc23)NC(=O)[C@@H](CC2CCCCC2)NC(=O)[C@@H]2CCCN2C(=O)[C@@H](NC(=O)CCc2ccccc2)CCCNC1=O | – | C57BL/6J mice, plasma | subcutaneous, 1 mg/kg | – | elimination half-life | 19.9 min |
| CC(C)(O)c1ncc([S@](N)(=O)=NC(=O)Nc2c3c(cc4c2CCC4)CCC3)s1 | – | human, plasma | oral, 600 mg, single dose, fasted, healthy volunteers | – | AUC(0-inf) | 839000 ng·h/mL |
| COCC1CN(C2CCN(c3cc(OC)c(Nc4ncc(Br)c(Nc5ccc6c(c5P(C)(C)=O)OCCO6)n4)cc3C)CC2)C1 | – | human | oral, dose not given, sample A patients, any grade | – | patients with loss of appetite | 33.3% |
| Cc1ccc(-c2ccc(-c3cc4sccc4o3)cn2)nc1 | – | aqueous HEPES buffer | pH 7.4, added: quinine bisulfate reference | – | fluorescence quantum yield | 0.54 |
| CCCC[C@H](NC(=O)CNC(=O)CNC(=O)CN1CCN(CC(=O)O)CCN(CC(=O)O)CC1)C(=O)N[C@H]1CC(=O)NCCCC[C@@H](C(N)=O)NC(=O)[C@H](Cc2c[nH]c3ccccc23)NC(=O)[C@H](CCCNC(=N)N)NC(=O)[C@@H](Cc2ccccc2)NC(=O)[C@H](Cc2c[nH]cn2)NC1=O [copper-64 labelled] | – | female C57 mouse, B16/F1 melanoma | intravenous, 0.037 MBq, 0.5 h | relative to: tumour over lung | uptake ratio | 6.1 |
| CC(=O)N[C@H](C)c1cc(Cl)ccc1Cn1c(=S)[nH]c(=O)c2[nH]ccc21 | – | Sprague-Dawley rat, female, plasma | oral, 125 mg/kg/day | relative to: rat over human 15 mg | exposure ratio | 1.5 |
| Cc1nc(N(C)C)ccc1N | – | phosphate buffer with BSA | pH 8, 37 °C, 1% DMSO | – | relative fluorescence intensity | 3400 RFU/nmol |
| COC1C=COC2(C)Oc3c(C)c(O)c4c(c3C2=O)C2=NC3(CCN(CC(C)C)CC3)NC2=C(NC(=O)C(C)=CC=CC(C)C(O)C(C)C(O)C(C)C(OC(=O)c2cccnc2)C1C)C4=O (stereo not drawn) | – | CD-1 mouse female, plasma | oral, 10 mg/kg | – | fAUC/MIC ratio | 50 |
| CC(O)c1ccc(C2CC3(C)C(CCC3(O)C(F)(F)C(F)(F)F)C3CCC4=CC(=O)CCC4=C23)cc1 (stereo not drawn) | – | human liver microsomes | 100 % absorption assumed | – | maximal oral bioavailability | 50% |
| CC[N+]1=C(C=CC=CC=C2N(CCCCCC(=O)O)c3ccc4c(S(=O)(=O)[O-])cc(S(=O)(=O)[O-])cc4c3C2(C)C)C(C)(C)c2c1ccc1c(S(=O)(=O)[O-])cc(S(=O)(=O)[O-])cc21.[K+].[K+].[K+] | – | 100% serum | pH 7.4 | – | extinction coefficient | 250000 M⁻¹ cm⁻¹ |

| SMILES | assay | system | setting | how to read | measurement | result |
| --- | --- | --- | --- | --- | --- | --- |
| COc1ccc(OC)c(/C(=C\c2ccc(O)c(O)c2)C(=O)NCCc2ccc(O)cc2)c1 | – | mouse liver S9 | concentration not given, 30 min, added: FLZ | – | formation from FLZ | not detected |
| CC[C@H](C)[C@H](NC(=O)[C@@H]1CCCN1C(=O)CNC(=O)[C@H](Cc1ccccc1)NC(=O)[C@H](CC(N)=O)NC(=O)[C@H](CC(N)=O)NC(=O)[C@H](CO)NC(=O)[C@H](CO)NC(=O)[C@H](Cc1c[nH]cn1)NC(=O)[C@@H](NC(=O)[C@H](CC(C)C)NC(=O)[C@H](Cc1ccccc1)NC(=O)[C@H](CC(N)=O)NC(=O)[C@H](C)NC(=O)[C@H](CC(C)C)NC(=O)[C@H](CCCNC(=N)N)NC(=O)[C@H](CCC(N)=O)NC(=O)[C@@H](NC(=O)[C@H](C)NC(=O)[C@@H]1CSSC[C@H](NC(=O)[C@@H](N)CCCCN)C(=O)N[C@@H](CC(N)=O)C(=O)N[C@@H]([C@@H](C)O)C(=O)N[C@@H](C)C(=O)N[C@@H]([C@@H](C)O)C(=O)N1)[C@@H](C)O)C(C)C)C(=O)N[C@@H](CC(C)C)C(=O)N[C@@H](CO)C(=O)N1CCC[C@H]1C(=O)N[C@H](C(=O)N[C@@H](CC(N)=O)C(=O)N[C@H](C(=O)NCC(=O)N[C@@H](CO)C(=O)N[C@@H](CC(N)=O)C(=O)N[C@H](C(=O)N[C@@H](Cc1ccc(O)cc1)C(N)=O)[C@@H](C)O)C(C)C)[C@@H](C)O | ion mobility mass spectrometry | ammonium acetate | pH 7.5, monomer ion charge +2 | – | collision cross section | 551.8 ± 3.1 Å² |
| C#CCOc1ccc(/C=C2\SC(=O)N(CC(=O)NCc3ccccc3)C2=O)cc1 | inverse Kirkwood-Buff integrals | binary solvent mixture | 298.15 K, mole fraction x1 0.50 | – | Kirkwood-Buff integral G1,3 | -261 cm³/mol |
| NC[C@@H](C(=O)Nc1ccc(-c2cn[nH]c2)cc1)c1ccccc1 | OECD 405 eye irritation | New Zealand White rabbit, eye | topical, 0.1%, 97 h (day 5), scale 0 to 4 | direction not given | cornea score | 0 |
| COc1cc(NC(C)=O)c2c(c1O)-c1c(OC)c(OC)cc3c1C(C2)N(C)CC3 (stereo not drawn) | – | rat, plasma | 100 µg/mL, time not given, -20 °C to room temperature, three freeze-thaw cycles | – | remaining compound | 102 ± 4.2% |
| CCOc1ccc2c(c1)C(C)=CC(C)(C)N2c1cc(OCC)cc2c1NC(C)(C)C=C2C | liver steatosis and necrosis increase | male BALB/c mice | oral, diet, 90 days | – | effective dose | > 10 mg/kg bw/day |
| CC(=O)N[C@H](CSSC[C@H](N)C(=O)O)C(=O)N[C@H](C)C(=O)N[C@H](CCCNC(=N)N)C(=O)N[C@H](CCCNC(=N)N)C(=O)N[C@H](CCCNC(=N)N)C(=O)N[C@H](C)C(=O)N[C@H](CCCNC(=N)N)C(N)=O | – | male human, plasma | intravenous, 5 mg, single dose, healthy volunteers | – | AUC(0-inf) | 620 ng·h/mL |
| O=C([O-])CN1CCN(CC(=O)[O-])CCN(CC(=O)NC[C@H]2CC[C@H](C(=O)N[C@H](Cc3cnc4ccccc4c3)C(=O)NCCCC[C@H](NC(=O)N[C@@H](CCC(=O)O)C(=O)O)C(=O)O)CC2)CCN(CC(=O)[O-])CC1.[64Cu+2] | – | ICR mouse, male, blood | intravenous, 0.74 MBq | – | distribution half-life | 1.2 min |
| [2H]C([2H])([2H])NC(=O)c1ccc(N2C(=S)N(c3ccc(C#N)c(C(F)(F)F)c3)C(=O)C2(C)C)cc1F | – | human, plasma | oral, 80 mg, fasted, single dose | – | CL/F | 247 ± 54 mL/h |
| NCC(=O)N1CCC[C@H]1C(=O)N1C[C@H](O)C[C@H]1C(=O)O | potentiometric titration | – | 37 °C, MA2 complex, added: Fe(III) | – | log beta | 23 |
| CCCCN1C(=O)c2cccc3c(NCCCCN4CCOCC4)ccc(c23)C1=O | – | aqueous medium | pH 6 | – | average fluorescence lifetime | 4.6 ns |
| c1ccc(CN2CCOCCOCCN(CCCCCCCCCCCCCCN3CCOCCOCCN(CCCCCCCCCCCCCCN4CCOCCOCCN(Cc5ccccc5)CCOCCOCC4)CCOCCOCC3)CCOCCOCC2)cc1 | dynamic light scattering | LB Miller medium | 3.5 µM | – | aggregate size | 160 nm |
| CNC(=O)N[C@]1(C)CCC[C@@]2(C)C3CC[C@@]4(C)C[C@]3(CCC21)CC4=O (single isomer, unassigned) | – | processed rat plasma | 40 ng/mL, 24 h, room temperature, autosampler stability | relative to: nominal concentration | relative error | 10.2% |
| COCCN(CC(N)=O)C(=O)CN(CCOC)C(=O)CN(CCOC)C(=O)CN(CCOC)C(=O)CN(CCOC)C(=O)CN(CCOC)C(=O)CN(CCC(=O)O)C(=O)CN(CCCCN)C(=O)CN(CCOC)C(=O)CN(CCOC)C(=O)CN(CCOC)C(=O)CN(CCOC)C(=O)CN(CCOC)C(=O)CN(CCOC)C(=O)C(Cc1ccccc1)NC(C)=O (stereo not drawn) | potentiometric titration with KOH | 100 x 1 mM KCl | – | – | pKa of COOH group | 4.3 |
| CCC(c1nnnn1Cc1cccs1)N1CCN(c2nc3cc(N)cc(F)c3s2)CC1 (stereo not drawn) | confocal laser scanning microscopy | Tris-HCl-Mg buffer | 90 µM, 5% DMSO | – | aggregate size | < 30 µm |
| CCCC[C@@H]1NC(=O)[C@@H](NC(=O)[C@H](CCC(=O)O)NC(=O)CNC(=O)CN2CCN(CC(=O)O)CCN(CC(=O)O)CCN(CC(=O)O)CC2)CCCCNC(=O)C[C@@H](C(N)=O)NC(=O)[C@H](C(C)C)NC(=O)[C@@H]2CCCN2C(=O)[C@H](CCCNC(=N)N)NC(=O)CNC(=O)[C@H](Cc2c[nH]c3ccccc23)NC(=O)[C@H](CCCNC(=N)N)NC(=O)[C@@H](Cc2ccccc2)NC(=O)[C@H](Cc2c[nH]cn2)NC(=O)[C@H](CCC(=O)O)NC1=O [gallium-67 labelled] | – | C57 mice, B16/F1 flank melanoma, skin | intravenous, 0.037 MBq/mouse, 2 h | – | tissue uptake | 0.25 ± 0.03 %ID/g |
| CCCCC/C=C/C=C/C(=O)NCC(C)C | – | rat plasma | 15 ng/mL, 30 d, -80 °C, long-term storage low QC | relative to: nominal concentration | relative error | -6.89% |
| Cc1ccc(OCC(=O)N(Cc2cccs2)c2ccn[nH]2)cc1 | – | male Sprague-Dawley rat, plasma | oral, 10 mg/kg, single dose | – | bioavailability | 0.07% |
| CN1CCC[C@]1(C)/C=C/S(=O)(=O)NC(=O)Nc1c2c(cc3c1CCC3)CCC2 | – | human, plasma | oral, 50 mg, single dose, healthy volunteers | – | AUC(0-t) | 40800 ng·h/mL |
